Experimental data pooled from the literature.
Parts stem from different laboratories: compare values within a part only.
UniProt Q13283, sequence (whole entry, looked up): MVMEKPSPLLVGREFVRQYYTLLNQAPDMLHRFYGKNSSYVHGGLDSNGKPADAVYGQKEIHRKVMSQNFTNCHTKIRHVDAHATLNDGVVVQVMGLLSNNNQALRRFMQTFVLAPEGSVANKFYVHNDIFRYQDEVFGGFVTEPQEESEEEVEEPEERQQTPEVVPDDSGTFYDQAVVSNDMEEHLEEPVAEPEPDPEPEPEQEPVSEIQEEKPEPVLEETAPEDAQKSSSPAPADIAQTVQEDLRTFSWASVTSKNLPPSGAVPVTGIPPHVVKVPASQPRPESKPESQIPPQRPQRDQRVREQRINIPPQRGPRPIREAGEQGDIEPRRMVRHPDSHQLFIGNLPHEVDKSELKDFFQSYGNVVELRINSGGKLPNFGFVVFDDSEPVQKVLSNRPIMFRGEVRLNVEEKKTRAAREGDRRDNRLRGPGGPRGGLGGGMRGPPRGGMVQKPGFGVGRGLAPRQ

Set 1
Target: Phosphate system positive regulatory protein PHO4, full length, GST-tagged (PHO4, Saccharomyces cerevisiae, UniProt P07270, residues 1-312)
Method: competition protein-binding microarray
Molecule type: double-stranded DNA, one strand shown
Matrix: in vitro
Concentration: 2 µM
Notes: whole 60-bp probe, lowest competitor level
Together with: Cbf1 competitor, 0.05 µM
Direction: higher = stronger binding
Construct (chain): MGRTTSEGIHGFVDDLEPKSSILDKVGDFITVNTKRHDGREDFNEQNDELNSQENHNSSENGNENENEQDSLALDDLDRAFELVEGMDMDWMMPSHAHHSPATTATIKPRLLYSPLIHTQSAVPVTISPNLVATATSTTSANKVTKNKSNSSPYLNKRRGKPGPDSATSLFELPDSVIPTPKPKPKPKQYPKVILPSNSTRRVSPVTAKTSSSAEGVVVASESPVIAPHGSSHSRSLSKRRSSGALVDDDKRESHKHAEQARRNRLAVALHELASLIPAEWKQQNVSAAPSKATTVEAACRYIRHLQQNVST
| Sequence | fluorescence intensity |
| --- | --- |
| TGGGAAGAAAAAAAGCACGTGAGCCTGGAAAATCCGGTCTTGATTCGCTTGACGCTGCTG | 16200 a.u. |
| ACAACTCCCAGCAGCCACGAGGAGCCCTAGGGCTTGGTCTTGATTCGCTTGACGCTGCTG | 12000 a.u. |
| CTTTCCCGATCTTGGTCTGTGGGTGTAGCACATTTGGTCTTGATTCGCTTGACGCTGCTG | 4960 a.u. |

Set 2
Target: Histone acetyltransferase KAT6A, winged helix 1, GST fusion (KAT6A, Homo sapiens, UniProt Q92794, residues 1-85)
Method: protein binding microarray
Molecule type: double-stranded DNA, one strand shown
Matrix: in vitro
Concentration: not given
Notes: 8-mer, flanks averaged, mean of 2 arrays, mostly near background
Relative to: not given
Direction: higher = stronger binding
Target sequence (chain): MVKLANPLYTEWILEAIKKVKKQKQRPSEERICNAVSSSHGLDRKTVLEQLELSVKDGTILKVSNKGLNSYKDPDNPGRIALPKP
| Sequence | E-score |
| --- | --- |
| GCGTGTCC | 0.221 |
| GTTAAAGA | 0.0378 |
| AGTGAGAG | -0.187 |

Further values, each from its own experiment
| Molecule | target | assay | test system | setting | scale | quantity | result |
| --- | --- | --- | --- | --- | --- | --- | --- |
| GGGAGUUCUACAGUCCGACGAUCGUCCUGUGCUACACAUCGUAUGUACCGAAUCGGGGUUUGGGGAAAGGGGAAAAAGGGGAAAGUAUUAUGUUACGCCGUUCGGAUCUGCACUGGAAUUCUCGGGUGUCAAGG | Fragile X messenger ribonucleoprotein 1, C-terminal low-complexity region (Fmr1, Mus musculus, UniProt P35922) | RNA Bind-n-Seq | RNA, in vitro | 200 nM, whole 134-nt RNA, ends assumed, together with: 150 mM KCl | relative to: input library, higher = stronger binding | log2 enrichment | 0.307 |
| PhoQ, residues 284 288 289 292 302 303 GASLAW | PhoP, residues 12 14 15 18 19 GQAIL (Escherichia coli, UniProt P23836) | Sort-seq, item: YFP reporter | E. coli | PhoQ-PhoP variant library, together with: 10 µM Mg2+ | relative to: high Mg2+ state, higher = stronger signaling | fold induction | 5.79 |
| GGGAGUUCUACAGUCCGACGAUCGCAAGAAGUAAAAACAAAUGGAAAUGCUUCGGAUAGUGGCAGGGGUGGGGGUUGCUAAGGAAAGGGUGGGAUGGGAGUGGGUAAAGAGUUUGGAAUUCUCGGGUGUCAAGG | Ras GTPase-activating protein-binding protein 1, RRM domain (G3BP1, Homo sapiens, UniProt Q13283) | RNA Bind-n-Seq | RNA, in vitro | 1 µM, whole 134-nt RNA, ends assumed, together with: 150 mM KCl | relative to: input library, higher = stronger binding | log2 enrichment | 0.834 |

For quick reference, copied from above (set 2):
| Sequence | E-score |
| --- | --- |
| GTTAAAGA | 0.0378 |
